Published values gathered from unrelated publications.
A part holds a random share of what one study measured.

Series 1 — method: RNA Bind-n-Seq; molecule type: RNA; matrix: in vitro; concentration: 1 µM; notes: whole 134-nt RNA, ends assumed; together with: 150 mM KCl; reference: input library; direction: higher = stronger binding; measurement: log2 enrichment
Target: Ras GTPase-activating protein-binding protein 1, RRM domain (G3BP1, Homo sapiens, UniProt Q13283)
UniProt Q13283, sequence (whole entry, looked up): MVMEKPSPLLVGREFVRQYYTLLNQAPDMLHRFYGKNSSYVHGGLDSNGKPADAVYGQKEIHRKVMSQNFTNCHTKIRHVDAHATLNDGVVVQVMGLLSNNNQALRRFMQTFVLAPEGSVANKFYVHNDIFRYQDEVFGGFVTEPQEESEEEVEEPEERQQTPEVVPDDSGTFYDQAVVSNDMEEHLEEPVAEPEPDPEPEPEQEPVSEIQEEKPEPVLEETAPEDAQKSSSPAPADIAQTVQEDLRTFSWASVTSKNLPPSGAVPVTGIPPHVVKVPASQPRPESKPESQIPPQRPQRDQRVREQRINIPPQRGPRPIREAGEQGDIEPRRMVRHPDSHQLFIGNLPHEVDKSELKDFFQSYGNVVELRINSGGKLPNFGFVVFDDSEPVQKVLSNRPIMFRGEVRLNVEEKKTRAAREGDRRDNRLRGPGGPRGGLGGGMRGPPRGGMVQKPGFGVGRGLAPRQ
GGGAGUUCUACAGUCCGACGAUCGCAGGAAGUAAAAACAAAUGGAAAUGCGUCGGAUAGUGGCAGGGGUGGGGGUUGCUAAGGAAAGGGUGGGAUGGGAGUGGGUAAAGAGUUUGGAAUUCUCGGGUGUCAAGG: 1.13
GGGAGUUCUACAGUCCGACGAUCUGGGCGGUGGAUUUUGUUUAUUUUUUUAGCUCAUUUCCAGGGGUGGGAAUUUUUUUUUAAUAUGUGUCAUGAAUAAAGUUGUUUUUGAAAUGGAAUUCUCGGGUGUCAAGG: 2.41
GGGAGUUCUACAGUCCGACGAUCUGGCCCUGGUGGCAUGCGGGGAGGAAGAGGUGUCCUCAUGGAUCGUGGUGGUCCCGGUGGAAUGUUCAGAGGUGGCCGUGGUGGAGACAGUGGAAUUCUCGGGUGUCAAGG: 0.712
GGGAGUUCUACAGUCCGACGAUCGUCCUGUGCUACACAUCGUAUGUACCGAAUCGGGUUUUUUUGGGUUUUUUUGGGAGGGAAAGUAUUAUGUUACGCCGUUCGGAUCUGCACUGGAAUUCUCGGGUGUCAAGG: 0.0925
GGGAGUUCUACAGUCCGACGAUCACCAUGCAGGUGGGCAUCUUUGGGAAGUGGGGCAAGGGGGGGAUAGGGAGGGGGGUAUCACUUUGGGAACAGGUGGUCCCAGGUCGUUUCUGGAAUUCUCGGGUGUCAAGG: 0.827
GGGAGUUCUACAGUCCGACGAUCCACAGACAACACGCACCCACACAGACACAGAGGGAAGGGGUUGGGAUGGGGACAGGGUGCACAGUAGGGCGGGGUAGGACCCCAGCCCCUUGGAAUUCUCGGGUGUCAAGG: 0.383
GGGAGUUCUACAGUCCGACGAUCUAACUUUAGAGGAGGAUCUGAUGGAUAUGGCAGUGGACGUGGAUUUGGGGAUGGCUAUAAUGGGUAUCGAGGAGGACCUGGAGGUGGCAAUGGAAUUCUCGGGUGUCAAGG: -0.268
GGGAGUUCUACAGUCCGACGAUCAGAUGAACAAGAGAACUGGGCAACCCAUGAUCCACAUCUACCUGGACAAGGAAACAGGAAAGCCCAAAGGCGAUGCCACAGUGUCCUAUGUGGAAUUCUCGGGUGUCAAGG: -0.114
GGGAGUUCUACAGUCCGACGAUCCAAGUCCUGUGCUACACAUCGUAUGUACCGAAUCGGGUGGGAAAAAAAGGGAGGGAAAGUAUUAUGUUACGCCGUUCGGAUCUGCACUUCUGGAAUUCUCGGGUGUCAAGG: 0.616
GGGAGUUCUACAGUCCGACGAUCCACAGACAACACGCACCCACACAGACACAGAGGGAAGGGGUUGGCAUGGGGACAGGGUGCACAGCAGGGCGGGGUAGGACCCCAGCCCCUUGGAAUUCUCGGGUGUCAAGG: -0.13
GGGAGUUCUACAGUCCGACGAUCAGUCCUGUGCUACACAUCGUAUGUACCGAAUCGGGAAAGGGUUUGGGAAAAAAAGGGAAAGUAUUAUGUUACGCCGUUCGGAUCUGCACUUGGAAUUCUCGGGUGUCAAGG: 0.0758

Series 2 — method: protein-binding microarray; molecule type: double-stranded DNA, one strand shown; matrix: in vitro; concentration: 2200 nM top; notes: 60-bp whole probe; together with: salmon DNA 0.4 mg/ml; reference: random background probes; direction: higher = stronger binding; measurement: fitted relative affinity; constant ends, left off below: GCCTAGCAC … GTCTTGATTCGCTTGACGCTGCTG
Target: Interferon regulatory factor 7, full length, phosphomimetic (IRF7, Homo sapiens, UniProt Q92985, residues 1-503, S471D/S472D/S475D/S476D/S477D/S483D/S484D/S487D)
Construct (chain): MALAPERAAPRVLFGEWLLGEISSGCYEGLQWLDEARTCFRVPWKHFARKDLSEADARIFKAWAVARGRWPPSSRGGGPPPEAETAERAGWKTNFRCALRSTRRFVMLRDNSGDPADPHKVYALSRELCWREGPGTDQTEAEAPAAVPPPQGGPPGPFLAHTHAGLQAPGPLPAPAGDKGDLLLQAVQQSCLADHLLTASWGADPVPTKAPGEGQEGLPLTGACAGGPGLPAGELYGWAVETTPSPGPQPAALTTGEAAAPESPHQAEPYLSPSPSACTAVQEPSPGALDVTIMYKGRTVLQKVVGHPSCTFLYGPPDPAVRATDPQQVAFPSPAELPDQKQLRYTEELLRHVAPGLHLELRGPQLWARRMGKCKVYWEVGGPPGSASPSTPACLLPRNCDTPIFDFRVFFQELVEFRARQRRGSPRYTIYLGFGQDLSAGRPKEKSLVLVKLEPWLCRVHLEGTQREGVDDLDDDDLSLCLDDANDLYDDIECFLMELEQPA
CTCTGCTTGGGTCTGGGTATGTGCTAG: -0.114 z-score
TTAGGTCTACTTCTCCTTTAGTGCTAG: 1.06 z-score
TTAGGTTTCCTTCTCCTTTGGTGCTAG: 2.31 z-score
GACGATTTCGGGTCTCGAGACGTGCTA: 4.04 z-score
GACGATTTCAGACTGGAGAGGTGCTAG: 0.128 z-score
AGAGTTCCAGACAGCTCCCTGTGCTAG: 0.213 z-score
TCAAGGTTGTTTCTAATACTGTGCTAG: 0.553 z-score
TCATTTTTTTTTCCCTGACTGTGCTAG: 2.25 z-score
TTAGGACTGGACTACCGGTTAGTGCTA: -0.773 z-score
GACGGACTGGACACTGGGGAGGTGCTA: -0.819 z-score
GACGGTTTCGGAATCGGGACGTGCTAG: 6.38 z-score

Series 3 — method: RNA Bind-n-Seq; molecule type: RNA; matrix: in vitro; concentration: not given; reference: input RNA pool; direction: higher = stronger binding; measurement: bound/input enrichment
Target: RING finger protein unkempt homolog, zinc fingers 1-6, GST-SBP tag (UNK, Homo sapiens, UniProt Q9C0B0, residues 30-357)
UniProt Q9C0B0, sequence (30-357, looked up): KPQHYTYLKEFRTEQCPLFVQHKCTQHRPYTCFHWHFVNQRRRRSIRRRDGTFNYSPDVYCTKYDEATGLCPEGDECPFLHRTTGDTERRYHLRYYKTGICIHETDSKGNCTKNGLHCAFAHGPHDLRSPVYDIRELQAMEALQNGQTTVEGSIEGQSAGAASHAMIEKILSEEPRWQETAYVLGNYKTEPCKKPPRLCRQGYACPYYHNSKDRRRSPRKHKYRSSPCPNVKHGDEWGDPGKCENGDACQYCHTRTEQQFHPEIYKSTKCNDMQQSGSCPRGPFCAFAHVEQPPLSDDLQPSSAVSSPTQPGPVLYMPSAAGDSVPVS
Notes: RNA with constant flanks, human-mouse chimeric sites, ends assumed
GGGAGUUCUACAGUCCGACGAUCAAAGAGUGGAUAGAGUGUGCACACGGGAUCGGUUAUACCCGGGCGAAAAAGGAGUGCAAGAUAGAGUUCGAUGACUUCGAAGAGUGCUUGCUUCGGUAGAAAACGAUGAGGCGAAUGCAUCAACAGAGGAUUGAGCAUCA: 0.571 ratio
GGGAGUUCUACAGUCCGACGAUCUACUCAACUUUCUUGCCACAUUUUGAAUUCCAAGACAUUAUUCCUCCAGAUGACUUCCUAACUAGUGAUGAAGAGCAAGAUUCCGUUUUAUUUGGAACUAUGAGAGGACAAGUUGUUGGACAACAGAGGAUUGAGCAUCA: 0.393 ratio
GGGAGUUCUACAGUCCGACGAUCGAAUCCUACUCAGGCGGAUUUUGCAACACCAAGCUCACAGCAGCAGCAUCUUAGUCACAGUAGGGUAGUUUUGGGGCAAUAUUGCCAGGGUUUUAUUCACAUGCAGGUUUGGAAAAUGUACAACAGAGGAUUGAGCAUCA: 3.44 ratio
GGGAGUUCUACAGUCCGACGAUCCUCAGAGAUGUGGCAUAUCAGUAUGUGAAAAAGGGGUCUCGUAUAUUUGUGGAAGGGAAAGUGGACUAUGGCGAGUACAUGGAUAAAAACAAUGUGAGGCGGCAAGCAACAACAAUCAUACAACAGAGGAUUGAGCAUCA: 0.35 ratio
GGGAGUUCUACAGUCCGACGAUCUUGCUACUAACUCCAUGGGUCAAGUUCCUGUGGGAAUCAUACAGGCAGUGUUUGGACCUUCUUCGAAACAAUUCUAGAGUAGAGCGCCUUUACCAUGAUAUCGCCCAACAAGCUUUCAAACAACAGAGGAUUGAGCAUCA: 0.189 ratio
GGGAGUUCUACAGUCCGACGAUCCGCUGGCCCAAGCUGAUGGACUCUGAUGGCCUCCAUCUCUCAGGCACGUUUGCCUUCUCUUAGUCCCUGUUUUCGGGAUGUUAUGAACAGUAUCAUGGUGGUUUGAAAGCACCAGCUUUGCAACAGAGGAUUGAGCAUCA: 0.123 ratio
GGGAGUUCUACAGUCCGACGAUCGAAACUAUUCCUAAAGAGGAGAAAGCUGAGAAGGAUGCUCGGAGACCAUCUCUUGAGAAACAUAGAAAAGAAAAGCCUUUUAAAACCGGGAGAGGCAGAAUUUCCACUCCUGAAAGAAAACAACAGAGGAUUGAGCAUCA: 0.277 ratio
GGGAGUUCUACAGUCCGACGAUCUAAGUUAAGCUUUUAAUCUUUGUAAAUUCUUAACAUUUUUAUAUUGCCAUGUUUAUUUUGUUUGGGUAAUUUGGUUCAUUAAGUACAUAGCUAAGGUAAUGAACAUCGUAAUUAUAGAUUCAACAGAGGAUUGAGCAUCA: 1.29 ratio
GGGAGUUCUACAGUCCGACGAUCAAAGUGAUAACCAUGUUUGUACAGCGACAGGUAUUUUCGGAGAGCAAAGAUGAGAUUGCGUUAGUCCUCUAUGGCACAGAUGGCACUGAUAAUGCCCUUGCUGGCAAGGACCAGUAUCAGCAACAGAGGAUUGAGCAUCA: 0.154 ratio
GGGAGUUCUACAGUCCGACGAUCGUGUCCUGCUUUCAACUUAAAUCACUGAGGCAUCUCUACUAUUCUGUGAGCAUCAGGACUGUAGCGCUGUGUCACCACAGAUGAGAACAGAAGCAGCCUUUCUGUGGAGGGUGGGAAUGACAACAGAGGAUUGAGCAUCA: 0.267 ratio
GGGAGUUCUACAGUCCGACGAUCCCCUCCCCGGGCCACCCGCCCGCCCAAGCUCCCCGCCGAGAUCCAGGUUUCUUCUUAUUUCAUAGCAAGCCAGAACAAUGUUCUACGCACAUUUUGUCCUCAGUAAACGAGGGCCUCUGGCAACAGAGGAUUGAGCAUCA: 4.57 ratio

Further values, each from its own experiment
PhoQ, residues 284 288 289 292 302 303 STVVAA
fold induction (PhoP, residues 12 14 15 18 19 QYFSL (Escherichia coli, UniProt P23836); Sort-seq, item: YFP reporter; E. coli; PhoQ-PhoP variant library, together with: 10 µM Mg2+; reference: high Mg2+ state, higher = stronger signaling): 0.44

Some of these lines once more (series 1):
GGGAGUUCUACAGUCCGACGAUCCACAGACAACACGCACCCACACAGACACAGAGGGAAGGGGUUGGGAUGGGGACAGGGUGCACAGUAGGGCGGGGUAGGACCCCAGCCCCUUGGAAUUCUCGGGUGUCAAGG: 0.383
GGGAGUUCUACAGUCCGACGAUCUGGGCGGUGGAUUUUGUUUAUUUUUUUAGCUCAUUUCCAGGGGUGGGAAUUUUUUUUUAAUAUGUGUCAUGAAUAAAGUUGUUUUUGAAAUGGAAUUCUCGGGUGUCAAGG: 2.41
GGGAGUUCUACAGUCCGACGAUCUGGCCCUGGUGGCAUGCGGGGAGGAAGAGGUGUCCUCAUGGAUCGUGGUGGUCCCGGUGGAAUGUUCAGAGGUGGCCGUGGUGGAGACAGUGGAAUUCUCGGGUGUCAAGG: 0.712
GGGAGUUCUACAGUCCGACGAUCCACAGACAACACGCACCCACACAGACACAGAGGGAAGGGGUUGGCAUGGGGACAGGGUGCACAGCAGGGCGGGGUAGGACCCCAGCCCCUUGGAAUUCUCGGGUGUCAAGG: -0.13
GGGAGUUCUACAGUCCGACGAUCAGAUGAACAAGAGAACUGGGCAACCCAUGAUCCACAUCUACCUGGACAAGGAAACAGGAAAGCCCAAAGGCGAUGCCACAGUGUCCUAUGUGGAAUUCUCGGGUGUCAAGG: -0.114
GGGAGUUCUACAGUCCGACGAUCACCAUGCAGGUGGGCAUCUUUGGGAAGUGGGGCAAGGGGGGGAUAGGGAGGGGGGUAUCACUUUGGGAACAGGUGGUCCCAGGUCGUUUCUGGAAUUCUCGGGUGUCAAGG: 0.827
